Measured values of several laboratories.
Each line is one published result; not all experiments were run side by side.
Organism: Leishmania donovani

SMILES	read-out	method	cells	strain	time	notes	IC50 [µM]
CCCCCCCCOC(=O)/C=C/c1ccc(O)c(O)c1	parasite growth				70 h	amastigote	0.2
COc1ccc(CCNC(=O)C(=O)[C@H](Cc2ccccc2)NC(=O)c2oc3cc(OC)ccc3c(=O)c2C)cc1	parasite growth				72 h	promastigote	9.8
CCOC(=O)CNC(=O)CN1C(=O)S/C(=C\c2ccc(OC)c(O)c2)C1=O	parasite growth				24 h	intracellular, amastigote	0.88
CC(=O)Oc1ccc(Cn2cc(C)c(=O)[nH]c2=O)cc1C1OC(c2ccccc2)=NN1C(C)=O (stereo not drawn)	parasite growth	SYBR Green				amastigote	> 100
CCn1cc(C(=O)NCCNCCO)c(=O)c2cc(OC)c(OCc3cccc(F)c3)cc21				Bob promastigotes	120 h		> 20
CCOC(=O)C(CC)NC(=O)CN1C(=O)S/C(=C\c2ccc([N+](=O)[O-])cc2)C1=O (stereo not drawn)	parasite growth				72 h	intracellular, amastigote	> 10
CC(=O)Oc1ccc(Cn2cc(F)c(=O)[nH]c2=O)cc1C1OC(c2ccc(Cl)cc2)=NN1C(C)=O (stereo not drawn)	parasite growth	SYBR Green	RAW264.7			intracellular, amastigote	> 19.2
O=C1C(O)=C(I)C(=O)c2ccccc21	parasite growth	SYBR Green	RAW264.7		48 h	intracellular, amastigote	13.2
COc1cc(O)c(-c2ccc(OC)c3c(O)cc(C)c(-c4cc(-c5c(O)cc(OC)c6c5C[C@@H](C)N[C@@H]6C)c5cc(C)cc(OC)c5c4O)c23)c2c1[C@@H](C)N(C)[C@H](C)C2				MHOM/ET/67/L82, amastigotes			59.5
CC(=O)Oc1ccc(Cn2cc(F)c(=O)[nH]c2=O)cc1C1OC(c2cccc(Cl)c2)=NN1C(C)=O (stereo not drawn)	parasite growth	SYBR Green	RAW264.7			intracellular, amastigote	> 100
O=C1C=C(OCc2cn(-c3ccccc3)nn2)C(=O)c2ccccc21	parasite growth	SYBR Green				amastigote	< 10
CCOC(=O)C(NC(=O)CN1C(=O)N/C(=C\c2ccc3c(c2)OCO3)C1=O)C(C)C (stereo not drawn)	parasite growth				72 h	intracellular, amastigote	> 10
CC(=O)Oc1ccc(Cn2ccc(=O)[nH]c2=O)cc1C1OC(c2cccc(Cl)c2)=NN1C(C)=O (stereo not drawn)	parasite growth	SYBR Green				amastigote	> 100
CCn1cc(C(=O)NCCNCCO)c(=O)c2cc(OCc3ccc(C(C)(C)C)cc3)c(Cl)cc21				Bob promastigotes	120 h		< 3
CC(=O)Oc1ccc(Cn2ccc(=O)[nH]c2=O)cc1C1OC(c2ccc(Cl)cc2)=NN1C(C)=O (stereo not drawn)	parasite growth	SYBR Green				amastigote	> 100
CCOC(=O)C(CC)NC(=O)CN1C(=O)S/C(=C\c2ccc(OC)cc2)C1=O (stereo not drawn)	parasite growth	resazurin				promastigote	> 100
CC(=O)Oc1ccc(Cn2cc(C)c(=O)[nH]c2=O)cc1C1OC(c2ccc(Cl)cc2)=NN1C(C)=O (stereo not drawn)	parasite growth	SYBR Green				amastigote	> 100

SMILES	read-out	method	cells	strain	time	notes	IC50 [µM]
CCOC(=O)C(NC(=O)CN1C(=O)/C(=C/c2ccc([N+](=O)[O-])cc2)SC1=S)C(C)C (stereo not drawn)	parasite growth	resazurin				promastigote	59.6
CCCCCCCCCC1CC2CCC3CC(CCCCCCCCC)NC(=N1)N23 (stereo not drawn)	parasite growth	Alamar Blue		promastigotes			2.39
Cc1nc(C(=O)N2CCC[C@H]2C(=O)N[C@@H](CCC(=O)O)C(=O)N[C@@H](CC(C)C)C(=O)NC(C)(C)C(=O)N[C@@H](CC(C)C)C(=O)N[C@@H](CC(C)C)C(=O)NC(C)(C)C(=O)NC(C)(C)C(=O)NCCC(=O)NC2(CN(C)C)CCC2)co1		resazurin		MHOM/ET/67/L-82 axenic amastigotes			> 8.56
CCn1cc(C(=O)NCCNCCO)c(=O)c2cc(OC)c(OCc3cccc(Br)c3)cc21				Bob promastigotes	120 h		> 20
COc1cc(O)c(-c2cc(-c3c(C)cc(O)c4c(OC)ccc(-c5c(O)cc(OC)c6c5C[C@@H](C)N(C)[C@@H]6C)c34)c(O)c3c(OC)cc(C)cc23)c2c1[C@@H](C)N(C)[C@H](C)C2				MHOM/ET/67/L82, amastigotes			65.5
CCOC(=O)C(C)NC(=O)CN1C(=O)N/C(=C\c2ccc(C)cc2)C1=O (stereo not drawn)	parasite growth				72 h	intracellular, amastigote	> 10
CC(C)OC(=O)/C=C/c1ccc(O)c([N+](=O)[O-])c1	parasite growth				70 h	amastigote	1.7
CCOC(=O)C(NC(=O)CN1C(=O)/C(=C/c2ccc3c(c2)OCO3)SC1=S)C(C)C (stereo not drawn)	parasite growth				24 h	intracellular, amastigote	0.62
COc1ccc(CCNC(=O)C(=O)[C@H](Cc2ccccc2)NC(=O)c2oc3cc(O)ccc3c(=O)c2C)cc1	parasite growth				72 h	promastigote	10
CCOC(=O)C(CC)NC(=O)CN1C(=O)S/C(=C\c2ccc(C)cc2)C1=O (stereo not drawn)	parasite growth	resazurin				promastigote	9.98
CC/C(=C\c1ccc(OCC(=O)NC(C(=O)N2CCSCC2)c2ccccc2)cc1)[N+](=O)[O-] (stereo not drawn)			macrophages	intracellular amastigotes	72 h		0.64
CC(=O)Oc1ccc(Cn2cc(F)c(=O)[nH]c2=O)cc1C1OC(c2ccccc2)=NN1C(C)=O (stereo not drawn)	parasite growth	SYBR Green	RAW264.7			intracellular, amastigote	> 100
Cc1cc2[nH]c(C(=O)Nc3ccccc3C)c(CN3CCOCC3)c2s1	parasite growth		THP-1		96 h	intracellular, amastigote	> 80
CC(=O)Oc1ccc(Cn2cc(C)c(=O)[nH]c2=O)cc1C1OC(c2cccc(Cl)c2)=NN1C(C)=O (stereo not drawn)	parasite growth	SYBR Green				amastigote	> 100
CCCCOC(=O)/C=C/c1ccc(O)c(O)c1	parasite growth				70 h	amastigote	0.64
CC/C(=C\c1ccc(OCC(=O)NC(C(=O)N2CCOCC2)c2ccccc2)cc1)[N+](=O)[O-] (stereo not drawn)			macrophages	intracellular amastigotes	72 h		6.37
